{"data": "Experimental data of several laboratories", "note": "Each line is one published result; not all experiments were run side by side."}
{"Compound": "CC1(C)SC2C(NC(=O)C(NC(=O)C3=C(O)C4(CC4)NC3=O)c3ccccc3)C(=O)N2C1C(=O)O (stereo not drawn)", "target or system": "Escherichia coli", "assay": "broth microdilution", "system": "BW25113 wild type", "setting": "18 h", "measurement": "MIC", "value": "50 µg/mL"}
{"Compound": "CN(C)c1cc(NC(=O)c2ccccn2)c(O)c2c1C[C@H]1C[C@H]3[C@H](N(C)C)C(O)=C(C(N)=O)C(=O)[C@@]3(O)C(O)=C1C2=O", "target or system": "Mycobacterium tuberculosis", "assay": "cell growth, broth microdilution", "system": "H37Rv, 7H9/ADG medium", "setting": "7 days, pH 7.4, 37 °C", "measurement": "MIC", "value": "> 200 µg/mL"}
{"Compound": "O=C(N[C@H](CO)[C@H](O)c1ccc([N+](=O)[O-])cc1)C(Cl)Cl", "target or system": "Staphylococcus cohnii", "assay": "broth microdilution", "system": "L5", "setting": "18 h", "measurement": "MIC", "value": "> 128 µg/mL"}
{"Compound": "NC1(C(=O)N[C@@H](CCO)c2ccc(Cl)cc2)CCN(c2nc[nH]c3nccc2-3)CC1", "target or system": "NLRP3 inflammasome (mouse)", "system": "mouse BMDM", "setting": "10 µM", "measurement": "inhibition", "value": "22.4%"}
{"Compound": "COc1cc(Cc2cnc(N)nc2N)cc(OC)c1OC", "target or system": "Staphylococcus cohnii", "system": "L5", "setting": "18 h", "measurement": "MIC", "value": "64 µg/mL"}
{"Compound": "CC(C)C(=O)NCC(=O)O", "assay": "binding, equilibrium dialysis LC-MS", "setting": "5 µM, thermostabilized A2AR-BRIL construct", "scale": "baseline: no-protein control, direction not given", "measurement": "z-scored log2 fold change", "value": -0.519}
{"Compound": "CO[C@H]1/C=C/O[C@@]2(C)Oc3c(C)c(O)c4c(O)c(c(/C=N/N5CCN(C)CC5)c(O)c4c3C2=O)NC(=O)/C(C)=C\\C=C\\[C@H](C)[C@H](O)[C@@H](C)[C@@H](O)[C@@H](C)[C@H](OC(C)=O)[C@@H]1C", "target or system": "Proteus mirabilis", "assay": "broth microdilution", "setting": "18 h", "measurement": "MIC", "value": "64 µg/mL"}
{"Compound": "N=C(N)c1ccc(OCc2ccc(-c3ccccc3)cc2COc2ccc(C(=N)N)cc2)cc1", "target or system": "Escherichia coli", "system": "BW25113", "setting": "compound alone", "measurement": "MIC", "value": "> 200 µg/mL"}
{"Compound": "CC1(C)S[C@@H]2[C@H](NC(=O)[C@H](N)c3ccccc3)C(=O)N2[C@H]1C(=O)O", "target or system": "Salmonella enterica serovar Infantis", "assay": "broth microdilution", "system": "clinical isolate RKI-No 277/14", "measurement": "MIC", "value": "> 16 µg/mL"}
{"Compound": "CCCCCCCCCC(=O)N[C@@H](Cc1c[nH]c2ccccc12)C(=O)N[C@H](CC(N)=O)C(=O)N[C@@H](CC(=O)O)C(=O)N[C@@H]1C(=O)NCC(=O)N[C@@H](CCCN)C(=O)N[C@@H](CC(=O)O)C(=O)N[C@H](C)C(=O)N[C@@H](CC(=O)O)C(=O)NCC(=O)N[C@H](CO)C(=O)N[C@@H]([C@H](C)CC(=O)O)C(=O)N[C@@H](CC(=O)c2ccccc2N)C(=O)O[C@@H]1C", "target or system": "Staphylococcus aureus", "system": "SH1000", "setting": "together with: sphingomyelin, molar ratio 2", "measurement": "MIC", "value": "1 µg/mL"}
{"Compound": "CC(=O)NC[C@H]1CN(c2ccc(N3CCOCC3)c(F)c2)C(=O)O1", "target or system": "Staphylococcus cohnii", "assay": "broth microdilution", "system": "L5", "setting": "18 h", "measurement": "MIC", "value": "> 128 µg/mL"}
{"Compound": "CN[C@H](CC(C)C)C(=O)N[C@H]1C(=O)N[C@@H](CC(N)=O)C(=O)N[C@H]2C(=O)N[C@H]3C(=O)N[C@H](C(=O)N[C@H](C(=O)O)c4cc(O)cc(O)c4-c4cc3ccc4O)[C@H](O)c3ccc(c(Cl)c3)Oc3cc2cc(c3O[C@@H]2O[C@H](CO)[C@@H](O)[C@H](O)[C@H]2O[C@H]2C[C@](C)(N)[C@H](O)[C@H](C)O2)Oc2ccc(cc2Cl)[C@H]1O", "target or system": "Staphylococcus aureus", "system": "MRSA-11", "measurement": "MIC", "value": "0.5 µg/mL"}
{"Compound": "C[C@@H](Oc1cc(-c2cnn(C3CCNCC3)c2)cnc1N)c1c(Cl)ccc(F)c1Cl", "target or system": "iCell Cardiomyocytes (hiPSC-derived)", "assay": "xCELLigence Cardio impedance", "setting": "concentration not given, 2 h", "scale": "baseline: control", "measurement": "beat amplitude", "value": "93.9%"}
{"Compound": "CC1(C)S[C@@H]2[C@H](NC(=O)[C@H](N)c3ccccc3)C(=O)N2[C@H]1C(=O)O", "target or system": "Staphylococcus cohnii", "assay": "broth microdilution", "system": "L5", "setting": "18 h", "measurement": "MIC", "value": "8 µg/mL"}
{"Compound": "NC[C@H]1O[C@H](O[C@H]2[C@H](O)[C@@H](O[C@H]3O[C@H](CO)[C@@H](O)[C@H](N)[C@H]3O)[C@H](N)C[C@@H]2N)[C@H](O)[C@@H](O)[C@@H]1O", "target or system": "Proteus mirabilis", "assay": "broth microdilution", "setting": "18 h", "measurement": "MIC", "value": "2 µg/mL"}
{"Compound": "C[C@H]1COc2c(N3CCN(C)CC3)c(F)cc3c(=O)c(C(=O)O)cn1c23", "target or system": "Proteus mirabilis", "assay": "agar dilution", "system": "ATCC 49565 susceptible", "measurement": "MIC", "value": "≤ 0.03 µg/mL"}
{"Compound": "CC(C)(O/N=C(\\C(=O)N[C@@H]1C(=O)N2C(C(=O)[O-])=C(C[n+]3ccccc3)CS[C@H]12)c1csc(N)n1)C(=O)O", "target or system": "Proteus mirabilis", "assay": "broth microdilution", "setting": "18 h", "measurement": "MIC", "value": "0.5 µg/mL"}
{"Compound": "CNC(C)C1CCC(N)C(OC2C(N)CC(N)C(OC3OCC(C)(O)C(NC)C3O)C2O)O1 (stereo not drawn)", "target or system": "Salmonella enterica serovar Derby", "assay": "broth microdilution", "system": "clinical isolate RKI-No 436/14", "measurement": "MIC", "value": "≤ 0.5 µg/mL"}
{"Compound": "CO/N=C(\\C(=O)N[C@@H]1C(=O)N2C(C(=O)O)=C(CSc3nc(=O)c(O)nn3C)CS[C@H]12)c1csc(N)n1", "target or system": "Proteus mirabilis", "assay": "broth microdilution", "setting": "18 h", "measurement": "MIC", "value": "0.5 µg/mL"}
{"Compound": "CN1CC(O)=C(C(=O)NC(C(=O)NC2C(=O)N3C2SC(C)(C)C3C(=O)O)c2ccccc2)C1=O (stereo not drawn)", "target or system": "Escherichia coli", "assay": "broth microdilution", "system": "ATCC 25922 wild type", "setting": "together with: clavulanic acid 6 µg/mL", "measurement": "MIC", "value": "25 µg/mL"}
{"Compound": "O=C(O)[C@H]1C[C@@H](O)CN1", "assay": "binding, equilibrium dialysis LC-MS", "setting": "5 µM, thermostabilized A2AR-BRIL construct", "scale": "baseline: no-protein control, direction not given", "measurement": "z-scored log2 fold change", "value": 0.167}
